Measurements pooled from the literature.
Each line is one published result; not all experiments were run side by side. ± marks the error that the study gave.
Cell line: A549

Compound	test	conditions	scale	endpoint	result
N.N.[Cl][Pt+].c1ccc2c(c1)cnc1ccccc12	–	0.5 µM, 24 h	–	cells with NPM1 translocation	49%
Cc1ccc(C(C)C)cc1.O=C([N-]c1nc2ccccc2[nH]1)c1cnccn1.[Cl-].[Ru+2]	cytotoxicity, MTT	–	baseline: KMST-6 over A549	selectivity index	> 2
CC1(CO)C(O)CCC2(C)C(C=CC3=CCOC3=O)C(CO)=CCC12 (stereo not drawn)	cell growth or viability, MTT	20 µM, 48 h	–	inhibition	40.8%
O=C(CSC(=S)N1CCCCCC1)Nc1cccc2c1C(=O)c1ccccc1C2=O	phospho-flow cytometry	25 µM, high serum	baseline: vehicle	phosphotyrosine level	~2 fold decrease
C[C@@H]1O[C@@H](OC[C@H]2O[C@@H](OCCc3ccc(O)c(O)c3)[C@H](O)[C@@H](O)[C@@H]2OC(=O)/C=C/c2ccc(O)c(O)c2)[C@H](O)[C@H](O)[C@H]1O	western blot	concentration not given	–	H3K4me1 accumulation	233%
CCN1CCC2(CC1)C/C(=N\NC(=O)Nc1ccccc1)c1ccccc1O2	PI staining, flow cytometry	concentration not given, %G2/M	–	cell cycle distribution	6.55%
FC(F)(F)c1ccnc(-c2cc(C(F)(F)F)ccn2)c1.FC(F)(F)c1ccnc(-c2cc(C(F)(F)F)ccn2)c1.[Cl-].[Cl-].[Ru+2].c1csc(-c2ccc(-c3ccc(-c4nc5c6cccnc6c6ncccc6c5[nH]4)s3)s2)c1	cell viability	100 J/cm2 light, normoxia, added: visible light 400-700 nm	baseline: dark over light EC50	phototherapeutic index	280
[Cl-].[Cl-].[Ru+2].c1ccc2nc(-c3ccc4ccccc4n3)ccc2c1.c1cnc2c(c1)ccc1cccnc12.c1cnc2c(c1)ccc1cccnc12	oxygen consumption rate, Seahorse extracellular flux	1 h, dark	–	lowest concentration inhibiting OCR	> 25 µM
O=[N+]([O-])c1ccc(Cn2cc(Cn3cc(CO)nn3)nn2)cc1	–	10 µM, 30 min	–	cells with cytosolic GFP-PLCδ1-PH	> 83%
[Cl-].[Cl-].[Ru+2].c1ccc(-c2ccccn2)nc1.c1ccc(-c2ccccn2)nc1.c1ccc(-c2ccnc3c2ccc2c(-c4ccccc4)ccnc23)cc1	Seahorse Mito Stress Test	concentration not given, added: 450 nm light 29.1 J/cm2	baseline: vehicle	maximal respiration reduction	≥ 90%
CC(=O)c1cccc(NC2C(NC(=O)OCc3ccccc3)C(NC(=O)N(C)C)(C(C)O)C(C)(O)C2(O)COC(=O)c2c(C)cccc2O)c1 (stereo not drawn)	cell growth or viability	–	–	EC50	11.8 µM
O=C1Nc2ccc(Cl)cc2/C1=N/Nc1nnc(Cc2ccccc2)c2ccccc12	–	concentration not given, added: serum stimulation	–	tyrosine phosphorylation	no effect
Cc1ccc2ccc3ccc(C)nc3c2n1.Cc1ccc2ccc3ccc(C)nc3c2n1.Clc1ccc(-c2cc(-c3ccccn3)nn2-c2ccccc2)cc1.[Cl-].[Cl-].[Ru+2]	oxygen consumption rate, Seahorse extracellular flux	1 h, added: indigo light 450 nm, 29.1 J/cm2	–	lowest concentration inhibiting OCR	10 µM
Cc1cc(Nc2cc(CN3CCN(C)CC3)cc(NC(=O)c3cccc(Nc4ccnc5ccccc45)c3)c2)nc(N)n1	–	concentration not given	–	time to peak γH2AX	2 to 6 h
COc1ccc(/C=C/C2=[N+]3C(=C(CO)c4c(C)cc(/C=C/c5ccc(OC)cc5)n4[B-]3(F)F)C(C)=C2)cc1	resazurin	added: 645 nm light	baseline: dark over light IC50	phototoxicity index	220 ± 100
COc1ccc([C@@H]2CC(=O)c3c(O)cc(O[C@@H]4O[C@H](CO[C@@H]5O[C@@H](C)[C@H](O)[C@@H](O)[C@H]5O)[C@@H](O[C@H]5O[C@H](CO)[C@@H](O)[C@H](O)[C@H]5O)[C@H](O)[C@H]4O)cc3O2)cc1O	cell migration, scratch	100 µg/mL, 72 h	–	gap closure	6.55 ± 0.3%
CC1=C(Cn2c3ccc(Br)c(=O)c-3nc3ccccc32)CCC(C)(C)C1	cytotoxicity, WST-8	–	baseline: IC50 MRC5 over IC50 A549	selectivity index	0.82
C[C@H]1CN(C(=O)c2cn(-c3ccnc(N)n3)c3cc(C#CC4(O)CCCCC4)ccc23)CCN1	western blot, item: PAK4 and LIMK1	concentration not given, 24 h	–	phosphorylation	inhibited
